# Assay results gathered from unrelated publications.
# Numbers after ± are the reported error.
# AMC4: Metacaspase-4 (AMC4, Arabidopsis thaliana, UniProt O64517)
# Sequence of UniProt O64517 (whole entry, looked up): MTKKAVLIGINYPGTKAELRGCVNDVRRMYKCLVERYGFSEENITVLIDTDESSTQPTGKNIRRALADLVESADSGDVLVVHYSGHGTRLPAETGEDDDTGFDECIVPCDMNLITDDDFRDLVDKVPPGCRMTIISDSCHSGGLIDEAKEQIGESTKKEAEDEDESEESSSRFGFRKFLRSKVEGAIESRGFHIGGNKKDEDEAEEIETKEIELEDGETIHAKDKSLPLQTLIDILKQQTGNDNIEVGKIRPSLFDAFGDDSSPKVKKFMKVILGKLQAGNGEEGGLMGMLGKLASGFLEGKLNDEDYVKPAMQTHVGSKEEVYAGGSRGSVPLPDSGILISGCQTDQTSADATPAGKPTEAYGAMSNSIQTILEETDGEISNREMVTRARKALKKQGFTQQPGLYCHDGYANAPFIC
# 4'-phosphopantetheinyl transferase PptT: 4'-phosphopantetheinyl transferase PptT (Mycobacterium tuberculosis, UniProt O33336)
# Sequence of UniProt O33336 (whole entry, looked up): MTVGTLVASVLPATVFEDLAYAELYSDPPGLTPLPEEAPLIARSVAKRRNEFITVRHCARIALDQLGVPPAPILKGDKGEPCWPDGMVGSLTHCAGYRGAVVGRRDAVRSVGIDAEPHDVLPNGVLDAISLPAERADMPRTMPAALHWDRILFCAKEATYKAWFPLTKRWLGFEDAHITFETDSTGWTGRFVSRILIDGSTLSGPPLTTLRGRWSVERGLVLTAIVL
# Slc6a4: Sodium-dependent serotonin transporter (Slc6a4, Rattus norvegicus, UniProt P31652)
# Sequence of UniProt P31652 (whole entry, looked up): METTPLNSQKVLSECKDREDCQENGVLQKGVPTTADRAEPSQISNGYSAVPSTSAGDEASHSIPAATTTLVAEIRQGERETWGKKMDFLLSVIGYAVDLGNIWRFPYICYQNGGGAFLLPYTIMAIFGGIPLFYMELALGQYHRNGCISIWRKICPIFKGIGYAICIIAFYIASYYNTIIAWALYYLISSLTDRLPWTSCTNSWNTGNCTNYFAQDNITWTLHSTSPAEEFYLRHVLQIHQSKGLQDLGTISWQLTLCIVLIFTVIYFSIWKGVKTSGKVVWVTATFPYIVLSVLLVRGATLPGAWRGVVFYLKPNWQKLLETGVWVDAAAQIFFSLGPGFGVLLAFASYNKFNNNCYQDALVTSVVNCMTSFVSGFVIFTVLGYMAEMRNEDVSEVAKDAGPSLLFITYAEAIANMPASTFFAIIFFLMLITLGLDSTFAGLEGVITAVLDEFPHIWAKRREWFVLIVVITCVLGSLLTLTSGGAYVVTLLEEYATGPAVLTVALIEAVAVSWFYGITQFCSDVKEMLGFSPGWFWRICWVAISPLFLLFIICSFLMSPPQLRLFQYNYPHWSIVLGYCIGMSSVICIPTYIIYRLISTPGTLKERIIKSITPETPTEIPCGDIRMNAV
# Sequence of UniProt Q9HAC7 (whole entry, looked up): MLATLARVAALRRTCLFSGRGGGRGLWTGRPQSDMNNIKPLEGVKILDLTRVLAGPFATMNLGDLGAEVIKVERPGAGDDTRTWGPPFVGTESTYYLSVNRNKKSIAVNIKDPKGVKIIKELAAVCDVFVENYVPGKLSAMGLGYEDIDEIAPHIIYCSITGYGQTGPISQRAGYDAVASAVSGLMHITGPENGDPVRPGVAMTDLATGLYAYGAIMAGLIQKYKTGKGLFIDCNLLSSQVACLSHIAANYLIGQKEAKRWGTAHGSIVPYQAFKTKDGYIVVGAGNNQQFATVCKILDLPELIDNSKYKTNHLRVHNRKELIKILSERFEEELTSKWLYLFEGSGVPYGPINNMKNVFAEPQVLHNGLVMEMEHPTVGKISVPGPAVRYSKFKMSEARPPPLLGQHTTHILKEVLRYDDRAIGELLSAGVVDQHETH
# Sequence of UniProt P00346 (whole entry, looked up): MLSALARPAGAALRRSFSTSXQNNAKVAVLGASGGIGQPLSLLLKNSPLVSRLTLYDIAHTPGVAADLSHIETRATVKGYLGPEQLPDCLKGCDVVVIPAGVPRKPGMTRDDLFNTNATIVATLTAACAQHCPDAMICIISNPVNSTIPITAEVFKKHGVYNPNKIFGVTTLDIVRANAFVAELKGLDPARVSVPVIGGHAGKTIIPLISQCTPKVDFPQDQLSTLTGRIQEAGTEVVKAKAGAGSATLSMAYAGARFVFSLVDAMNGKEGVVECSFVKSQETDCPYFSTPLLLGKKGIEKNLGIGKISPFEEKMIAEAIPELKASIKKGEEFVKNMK
Structure (SMILES),target,assay,test system,setting,IC50
O=C1NC(=S)N(c2cccc(Cl)c2)C(=O)C1=Cc1ccc2c(c1)OCO2,AMC4,"enzyme activity, inhibitor",,"pH 7.5, 50 mM CaCl2, together with: VRPR-AMC 50 µM",41 µM
CCNC(=N)NC(=O)Nc1ccccc1CN1CCCCC1,4'-phosphopantetheinyl transferase PptT,inhibitor,,,> 100 µM
CCNC(CC)C(=O)c1ccc2c(c1)OCO2 (centres unmarked),Slc6a4,,,rat,0.69 ± 0.05 µM
Cc1nc2ccc(CN(C)c3ccc(C(=O)N[C@@H](CCC(=O)O)C(=O)O)s3)cc2c(=O)[nH]1,4'-phosphopantetheinyl transferase PptT,"enzyme activity, inhibitor, fluorescence polarization",,enzyme 100 nM,0.054 µM
CCNc1c(NC(=O)Nc2c(CC)cccc2CC)c(=O)c1=O,4'-phosphopantetheinyl transferase PptT,inhibitor,,,> 100 µM
O=C1NC(=S)N(c2ccc(Cl)cc2)C(=O)C1=Cc1ccc(I)o1,AMC4,"enzyme activity, inhibitor",,"pH 7.5, 50 mM CaCl2, together with: VRPR-AMC 50 µM",29 µM
CCCCCc1cc(O)c(C/C=C(\C)CCC=C(C)C)c(O)c1C(=O)O,"MDH2 (Sus scrofa, UniProt P00346)",,,,50 µM
CCCCC(=O)N(Cc1ccc(-c2ccccc2-c2nnn[nH]2)cc1)[C@H](C(=O)O)C(C)C,"Succinyl-CoA:glutarate CoA-transferase (SUGCT, Homo sapiens, UniProt Q9HAC7)","enzyme activity, inhibitor, fluorometric coupled",,"pH 7.44, KCl-HCl buffer",12.1 µM
CCNC(=N)NC(=O)Nc1ccc2c(c1)OCO2,4'-phosphopantetheinyl transferase PptT,inhibitor,,,> 100 µM
CCCC(NC)C(=O)c1ccc2c(c1)OCO2 (racemic),Slc6a4,"serotonin uptake, inhibitor",rat brain synaptosomes,together with: [3H]5-HT 5 nM,1.24 ± 0.14 µM
O=C1NC(=S)NC(=O)C1=CC=Cc1ccco1,AMC4,"enzyme activity, inhibitor",,"pH 7.5, 50 mM CaCl2, together with: VRPR-AMC 50 µM",> 200 µM

# Some of these lines once more:
Structure (SMILES),target,assay,test system,setting,IC50
CCCC(NC)C(=O)c1ccc2c(c1)OCO2 (racemic),Slc6a4,"serotonin uptake, inhibitor",rat brain synaptosomes,together with: [3H]5-HT 5 nM,1.24 ± 0.14 µM
CCNC(=N)NC(=O)Nc1ccc2c(c1)OCO2,4'-phosphopantetheinyl transferase PptT,inhibitor,,,> 100 µM
